Experimental data from different studies.
Protocols differ between the studies behind these lines. ± marks the error that the study gave.
Organism: Acinetobacter baumannii

Compound | test | test system | conditions | how to read | MIC
NCCCC[C@@H]1NC(=O)[C@@H](CCCCN)NC(=O)[C@H](CCCCN)NC(=O)[C@@H](CCCCN)NC(=O)[C@H](Cc2c[nH]c3ccccc23)NC(=O)[C@@H](Cc2c[nH]c3ccccc23)NC(=O)[C@@H](N)CSCc2ccc(cc2)CSC[C@@H](C(N)=O)NC(=O)[C@@H](Cc2c[nH]c3ccccc23)NC(=O)[C@H](Cc2c[nH]c3ccccc23)NC(=O)[C@@H](CCCCN)NC1=O |  | 19606 |  |  | 16 µg/mL
CCCCCCCCCCCCCC(=O)N[C@H](CCN)C(=O)N[C@@H]1C(=O)N[C@@H](CCN)C(=O)N[C@@H](CC(C)C)C(=O)N[C@@H](CCN)C(=O)N[C@H](Cc2ccccc2)C(=O)N[C@@H](CC(C)C)C(=O)N[C@@H](CCN)C(=O)N[C@H](Cc2ccc(O)cc2)C(=O)N[C@@H](C(C)C)C(=O)N[C@@H](CC(=O)O)C(=O)O[C@@H]1C | broth microdilution | BNCC 194496 |  |  | 4 µg/mL
CC[C@@H](C)[C@@H](NC(=O)[C@@H](C)NC(=O)[C@H](NC(=O)[C@@H](CC(=O)O)NC(=O)[C@@H](CCCCN)NC(=O)[C@@H](CO)NC(=O)[C@H](NC(=O)[C@@H](CC(N)=O)NC(=O)[C@@H](C)NC(=O)[C@H](NC(=O)[C@@H](CCC(=O)O)NC(=O)[C@@H](CCCCN)NC(=O)[C@H](NC(=O)[C@H](NC(=O)[C@@H](Cc1c[nH]cn1)NC(=O)[C@@H](CCCCN)NC(=O)[C@H](NC(=O)[C@@H](CCCCN)NC(=O)[C@@H](CCCCN)NC(=O)[C@H](NC(=O)[C@@H](CC(C)C)NC(=O)[C@@H](CCCCN)NC(=O)[C@@H](CC(N)=O)NC(=O)[C@@H](Cc1ccccc1)NC(=O)[C@@H](CCCNC(=N)N)NC(=O)[C@@H](CCCCN)NC(=O)[C@@H](CCCNC(=N)N)NC(=O)[C@@H](Cc1ccccc1)NC(=O)CN)C(C)C)C(C)C)[C@H](C)O)[C@H](C)CC)[C@H](C)O)C(C)C)C(C)C)C(=O)N[C@@H](C(=O)N[C@H](C)C(=O)NCC(=O)N[C@H](CO)C(=O)NCC(=O)N[C@@H](C(=O)N[C@H](C)C(=O)N[C@@H](C(=O)NCC(=O)N[C@H](C)C(=O)N[C@H](C)C(=O)N[C@H](CCSC)C(N)=O)C(C)C)C(C)C)C(C)C | broth microdilution | ATCC 19606, CAMHB |  |  | 64 µg/mL
CC[C@H](C)[C@H](NC(=O)[C@H](CCCN)NC(=O)[C@H](CC(N)=O)NC(=O)[C@H](CC(C)C)NC(=O)[C@H](Cc1ccccc1)NC(=O)[C@H](CCCN)NC(=O)[C@H](CCCNC(=N)N)NC(=O)[C@H](CC(C)C)NC(=O)[C@H](CC(C)C)NC(=O)[C@H](CCCN)NC(=O)[C@H](CCCNC(=N)N)NC(=O)[C@H](CC(C)C)NC(=O)CNC(C)=O)C(=O)N[C@@H](CCCN)C(=O)N[C@@H](CCCNC(=N)N)C(N)=O | bacterial growth, broth microdilution | multidrug-resistant |  |  | 6.25 µM
CCCCCCCCCCCCCC(=O)N[C@H](CCN)C(=O)N[C@@H]1C(=O)N[C@@H](CCN)C(=O)N[C@@H](CC(C)C)C(=O)N[C@@H](CCN)C(=O)N[C@H](Cc2ccccc2)C(=O)N[C@@H](CC(C)C)C(=O)N[C@@H](CCN)C(=O)N[C@H](CCN)C(=O)N[C@@H](C(C)C)C(=O)N[C@@H](CC(=O)O)C(=O)O[C@@H]1C | broth microdilution | ATCC BAA-1605, carbapenem-resistant MDR |  |  | 2 µg/mL
CC(C)C[C@@H]1NC(=O)[C@@H](Cc2ccccc2)NC(=O)[C@H](CCN)NC(=O)[C@@H](NC(=O)[C@H](CN)NC(=O)[C@@H](NC(=O)CC(CN)C2CCCCC2)[C@@H](C)O)CCNC(=O)[C@H]([C@@H](C)O)NC(=O)[C@H](CCN)NC(=O)[C@H](CCN)NC1=O (stereo partly drawn) | broth microdilution | NCTC 13424 OXA-23 producer, cation-adjusted Mueller-Hinton broth |  |  | 0.25 µg/mL
CC[C@H](C)[C@H](NC(=O)[C@H](CCCCN)NC(=O)[C@H](CC(N)=O)NC(=O)[C@H](CC(C)C)NC(=O)[C@H](Cc1ccccc1)NC(=O)[C@H](CCCCN)NC(=O)[C@H](CCCCNC(=N)N)NC(=O)[C@H](CC(C)C)NC(=O)[C@H](CC(C)C)NC(=O)[C@H](CCCCN)NC(=O)[C@H](CCCCNC(=N)N)NC(=O)[C@H](CC(C)C)NC(=O)CNC(C)=O)C(=O)N[C@@H](CCCCN)C(=O)N[C@@H](CCCCNC(=N)N)C(N)=O | bacterial growth, broth microdilution | multidrug-resistant |  |  | 6.25 µM
CCn1c(-c2ccc(OC)cc2)c(-c2ccc(OC)cc2)n(Cc2c(C)cc(C)cc2C)c1=[Se+][Au-][P+](c1ccccc1)(c1ccccc1)c1ccccc1.[Cl-] | broth microdilution | carbapenem-resistant | 24 h |  | 40 µM
CC[C@H](C)[C@@H]1NC(=O)[C@@H](CC(C)C)NC(=O)[C@H](CCN)NC(=O)[C@@H](NC(=O)[C@@H](CO)NC(=O)[C@@H](NC(=O)[C@H](CCN)NC(=O)c2ccc(-c3ccccc3)cc2)[C@@H](C)O)CCNC(=O)[C@H](CC(C)C)NC(=O)[C@H](CCN)NC(=O)[C@H](CCN)NC1=O |  | 0301, mcr-1 |  |  | 1 µg/mL
CC(C)C[C@H](NC(=O)[C@H](Cc1ccc(O)cc1)NC(=O)[C@@H]1CCCN1C(=O)[C@H](CCCNC(=N)N)NC(=O)[C@@H]1CCCN1C(=O)[C@H](CCCCN)NC(=O)[C@H](CC(=O)O)NC(=O)[C@@H]1CCCN1C(=O)[C@H](CCCNC(=N)N)NC(=O)C1(N)CCCCC1)C(=O)N1CCC[C@H]1C(=O)N[C@@H](CCCNC(=N)N)C(=O)N1CCC[C@H]1C(=O)N[C@@H](CCCNC(=N)N)C(=O)N1CCC[C@H]1C(=O)N1CCC[C@H]1C(=O)N[C@@H](CCCNC(=N)N)C(=O)N1CCC[C@H]1C(=O)N[C@H](C(=O)N[C@@H](CCCNC(=N)N)C(=O)N[C@@H](CSc1c(F)c(F)c(SC[C@H](NC(=O)[C@H](CCCNC(=N)N)NC(=O)[C@@H](NC(=O)[C@@H]2CCCN2C(=O)[C@H](CCCNC(=N)N)NC(=O)[C@@H]2CCCN2C(=O)[C@@H]2CCCN2C(=O)[C@H](CCCNC(=N)N)NC(=O)[C@@H]2CCCN2C(=O)[C@H](CCCNC(=N)N)NC(=O)[C@@H]2CCCN2C(=O)[C@H](CC(C)C)NC(=O)[C@H](Cc2ccc(O)cc2)NC(=O)[C@@H]2CCCN2C(=O)[C@H](CCCNC(=N)N)NC(=O)[C@@H]2CCCN2C(=O)[C@H](CCCCN)NC(=O)[C@H](CC(=O)O)NC(=O)[C@@H]2CCCN2C(=O)[C@H](CCCNC(=N)N)NC(=O)C2(N)CCCCC2)C(C)C)C(=O)NN)c(F)c1F)C(=O)NN)C(C)C | bacterial growth | ATCC 19606, 100% Mueller-Hinton broth | 90 min, 37 °C, strain ATCC 19606 |  | 6.5 ± 0.1 µg/mL
CC[C@H](C)[C@H](NC(=O)[C@@H](CCCNC(=N)N)NC(=O)[C@H](CCCNC(=N)N)NC(=O)[C@@H]1CCCN1C(=O)[C@@H]1CCCN1C(=O)[C@H](CCCNC(=N)N)NC(=O)[C@@H]1CCCN1C(=O)[C@H](CCCNC(=N)N)NC(=O)[C@@H]1CCCN1C(=O)[C@H](CC(C)C)NC(=O)[C@H](Cc1ccc(O)cc1)NC(=O)[C@@H]1CCCN1C(=O)[C@@H]1CCCN1C(=O)[C@H](CCCCN)NC(=O)[C@H](CCCNC(=N)N)NC(=O)[C@@H](N)C(C)C)C(=O)N[C@@H](Cc1ccc(O)cc1)C(=O)N[C@@H](CC(N)=O)C(=O)N[C@H](CCCNC(=N)N)C(N)=O | broth microdilution | DSM 30008 | 18 h |  | 8 µg/mL
O=C(NCCNCCO)c1cn(Cc2ccccc2)c2cc(OCc3ccc(C(F)(F)F)cc3)c(Cl)cc2c1=O |  | ATCC 19606 |  | ≥80% growth inhibition | > 32 µg/mL
CC[C@@H](C)[C@@H](NC(=O)[C@@H](C)NC(=O)[C@@H](CCCCN)NC(=O)[C@@H](CC(C)C)NC(=O)[C@@H](C)NC(=O)[C@H](NC(=O)[C@@H](Cc1c[nH]cn1)NC(=O)[C@@H](CC(C)C)NC(=O)[C@H](NC(=O)[C@H](NC(=O)[C@@H](CCCCN)NC(=O)[C@@H](CCCCN)NC(=O)[C@@H](C)NC(=O)[C@@H](CO)NC(=O)[C@@H](CCCCN)NC(=O)[C@@H](Cc1ccccc1)NC(=O)[C@H](NC(=O)[C@@H](CCCCN)NC(=O)[C@@H](CC(C)C)NC(=O)[C@@H](Cc1ccccc1)NC(=O)[C@@H](CO)NC(=O)[C@@H](CCCCN)NC(=O)[C@@H](Cc1c[nH]c2ccccc12)NC(=O)[C@@H](CCCCN)NC(C)=O)[C@H](C)O)[C@H](C)O)C(C)C)[C@H](C)O)C(=O)N[C@H](CO)C(=O)N[C@H](CO)C(N)=O |  | 899, Mueller-Hinton broth | 24 h, 37 °C |  | 1.5 µM
CC[P+](CC)(CC)[Au-][S][C@@H]1O[C@H](COC(C)=O)[C@@H](OC(C)=O)[C@H](OC(C)=O)[C@H]1NC(C)=O |  | NCTC 13420 |  |  | 24 µM
CC(C)[C@@H]1NC(=O)[C@@H]2CCCN2C(=O)[C@@H](C)NC(=O)[C@H](CO)NC(=O)[C@H](C)NC(=O)[C@H](C(C)(C)C)NC(=O)[C@H](CCO)NC(=O)[C@H](Cc2c[nH]c3ccccc23)NC(=O)[C@H](CCO)NC(=O)[C@@H](CCN)NC(=O)[C@H](CCC(N)=O)NC(=O)[C@H](CCN)NC(=O)[C@H](Cc2ccc(O)cc2)NC(=O)[C@H]([C@@H](C)O)NC1=O | broth microdilution | ATCC 17978, CAMHB with polysorbate-80 | 16 h |  | > 64 µg/mL

Repeated from above:
Compound | test | test system | conditions | how to read | MIC
CC(C)C[C@@H]1NC(=O)[C@@H](Cc2ccccc2)NC(=O)[C@H](CCN)NC(=O)[C@@H](NC(=O)[C@H](CN)NC(=O)[C@@H](NC(=O)CC(CN)C2CCCCC2)[C@@H](C)O)CCNC(=O)[C@H]([C@@H](C)O)NC(=O)[C@H](CCN)NC(=O)[C@H](CCN)NC1=O (stereo partly drawn) | broth microdilution | NCTC 13424 OXA-23 producer, cation-adjusted Mueller-Hinton broth |  |  | 0.25 µg/mL
CC[C@H](C)[C@H](NC(=O)[C@H](CCCN)NC(=O)[C@H](CC(N)=O)NC(=O)[C@H](CC(C)C)NC(=O)[C@H](Cc1ccccc1)NC(=O)[C@H](CCCN)NC(=O)[C@H](CCCNC(=N)N)NC(=O)[C@H](CC(C)C)NC(=O)[C@H](CC(C)C)NC(=O)[C@H](CCCN)NC(=O)[C@H](CCCNC(=N)N)NC(=O)[C@H](CC(C)C)NC(=O)CNC(C)=O)C(=O)N[C@@H](CCCN)C(=O)N[C@@H](CCCNC(=N)N)C(N)=O | bacterial growth, broth microdilution | multidrug-resistant |  |  | 6.25 µM
